Assay results from different studies.
Values joined by “and” are separate records of one study, mostly repeats; a detail may differ. ± marks the error that the study gave.

SMILES	tested on	test	test system	conditions	scale	endpoint	value
O=C(/C=C\n1cnc(-c2cc(C(F)(F)F)cc(C(F)(F)F)c2)n1)NNc1cnccn1	BT-12	cell viability, MTT		10 µM, 72 h		inhibition	89.2%
C=CCn1c(=O)c2cnc(Nc3ccc(N4CCN(C)CC4)cc3)nc2n1-c1ccc2c(n1)[C@@](O)(CC)CC2	OVCAR-3	flow cytometry, refers to: pHH3-γH2Ax+		concentration not given		G2/M cells in subpopulation	4.1%
O=C1NC(=O)/C(=C/c2ccc3nccnc3c2)S1	HeLa expressing Ub(G76V)-GFP	Ub(G76V)-GFP degradation, cycloheximide chase		12 µM		inhibition	7%
NC(=O)c1ccc(I)c([N+](=O)[O-])c1	HBL-1			1 µM, 120 h		viability	105%
COc1cc(/C=C/C(=O)N2CCC=CC2=O)cc(OC)c1OC	MDA-MB-468	quantitative RT-PCR, refers to: NDUFA6		30 µM, 8 h	baseline: untreated cells	mRNA level	84 ± 22.1%
CC(=O)Nc1cccc(-n2c(=O)n(C3CC3)c(=O)c3c(Nc4ccc(I)cc4F)n(C)c(=O)c(C)c32)c1	COLO 205	cell viability, resazurin		1.56 nM, 72 h	baseline: DMSO	fractional effect	0.85 and 0.793
CCC/C(=C\C1=C(OC)C(=O)c2ccccc2C1=O)C(=O)N(CC)CC	human brain microvascular endothelial	cell growth, alamarBlue		48 h	baseline: DMSO	GI50	2880 nM
COC(=O)Nc1nc2ccc(C(=O)c3ccccc3)cc2[nH]1	BT-12	cell viability, MTT		10 µM, 72 h		inhibition	86%
Cc1[nH]c(C)c(-c2ccc(CCc3ccc(C(F)(F)F)cc3)nc2)c(=O)c1Cl	Plasmodium yoelii		17XL	384-well		IC50	271 ± 1 nM
O=C(C[C@@H](C(F)F)n1ccc(F)n1)N1CCC(O)(Cn2cnc3c(cnn3-c3ccc(F)cc3)c2=O)CC1	CHP-212 resistant cells (pooled)	annexin V-PI flow cytometry		1 µM, 48 h		viable cells (annexin V-/PI-)	86.5% and 87% and 81.6%
CC[S+]([O-])c1nc(-c2ccccc2)cc(C(F)(F)F)n1 (stereo not drawn)	HeLa Kyoto	RelA nuclear import, high content imaging		0.02 µM, 3 h, together with: 1 µM PMA, 60 min		cells with nuclear RelA	67.7% and 76.4%
Cc1ccccc1Cn1cc(-c2cccc(NC(=O)Nc3ccc(F)cc3)c2)nn1	Huh-7	annexin V/PI flow cytometry		5 µM, 72 h		apoptotic cells	no effect
COc1cc(/C=C/C(=O)N2CCC=CC2=O)cc(OC)c1OC	BT-12	cell viability, MTT		10 µM, 72 h		inhibition	95%
Cn1cc(-c2ccc(-c3cncc(Cl)c3N3CCC4(CCNC4=O)CC3)cc2)cn1	COLO 205	gene expression, microarray, refers to: HIST1H4C mRNA		concentration not given, 2 h	baseline: untreated cells	log2 fold change	-1.62
COc1ccc(-c2nc(N3CCOCC3)c3sc(CN(C)c4ncc(C(=O)NO)cn4)cc3n2)cn1	BT-12	cell viability, MTT		10 µM, 72 h		inhibition	94.5%
C[C@]12O[C@H](C[C@]1(O)CO)n1c3ccccc3c3c4c(c5c6ccccc6n2c5c31)CNC4=O	HBL-1			0.1 µM, 120 h		viability	30%
CCn1cc(-c2cc(Cn3ccnc3)cc3c2CCN([C@H](c2cc(OC)ccn2)C2CC2)C3=O)c(C(F)(F)F)n1	RS4	cell growth, inhibitor		120 h		EC50	25 nM
Cc1cc(Nc2nc(-c3ccccc3)nc3ccccc23)n[nH]1	HeLa expressing Ub(G76V)-GFP	Ub(G76V)-GFP degradation, cycloheximide chase		12 µM		inhibition	19%
Cn1cc(Nc2nccc(-c3ccc4c(c3)CN(C3COC3)CC[C@H]4NC(=O)c3cn(C(C)(C)C)nn3)n2)cn1	mouse splenic B cells	refers to: ErbB signalling		30 mg/kg, IgD-activated in vivo	baseline: vehicle, direction not given	pathway activation z-score	2.89

SMILES	tested on	test	test system	conditions	scale	endpoint	value
C=Cc1c2[n-]c(c1C)/C=c1\[n-]/c(c(C)c1C=C)=C\c1[n-]c(c(CCC(=O)O)c1C)/C=c1\[n-]c(c(C)c1CCC(=O)O)=C2.[Sn+4]	SH-SY5Y	RNA-seq, refers to: SIRPG-AS1		5 µM, 5 h	baseline: untreated	log2 fold change	9.21
CCc1cnc(N2CCC(c3nc(COc4ccc(-n5cnnn5)cc4)cs3)CC2)nc1	HEK-293T	RNA-seq GSEA, refers to: HALLMARK_HYPOXIA		concentration not given	direction not given	normalized enrichment score	1.55
CO[C@H]1[C@H](O[C@H]([C@H]2O[C@@H](n3ccc(=O)[nH]c3=O)[C@H](O)[C@@H]2O)[C@H](NCCCNC(=O)[C@@H](NC(=O)[C@@H](NC(=O)N[C@H](C(=O)O)C(C)C)[C@@H]2CCN=C(N)N2)[C@@H](OC(=O)CCCCCCCCCCCCN(O)C(=N)N)C(C)C)C(=O)O)O[C@H](CN)[C@H]1O	MDA-MB-231	Boyden chamber		2.5 µM, 24 h		migration inhibition	98%
CN1CCC(CNc2ccc3ncc(-c4cccc(OC(F)(F)F)c4)n3n2)CC1	BT-12	cell viability, MTT		10 µM, 72 h		inhibition	94.8%
O=C(/C=C/c1ccc(O)cc1)c1ccc(O)cc1O	HBL-1			0.5 µM, 120 h		viability	113%
COc1cnc2cccc(N3CCc4c(cc(Cn5ccnc5C)cc4-c4cn(C)nc4C(F)(F)F)C3=O)c2c1	HCC95	cell growth, inhibitor		120 h		EC50	> 30000 nM
Cc1c(C)c2c(c(C)c1O)CCC(C)(COc1ccc(CC3SC(=O)NC3=O)cc1)O2 (stereo not drawn)	HepG2	extracellular flux, refers to: oxygen consumption rate		6 h, distribution mode 2		point of departure	5.89 µM
CCOC(=O)CSc1nc(-c2ccc(Cl)cc2)c2c(NC(=O)c3ccccc3)nnc-2[nH]1	Hs-578T	SRB		10 µM, NCI60 single-dose screen	baseline: untreated	cell growth	92.6%
Cc1ccc(S(=O)(=O)/C=C/C#N)cc1	HeLa expressing Ub(G76V)-GFP	Ub(G76V)-GFP degradation, cycloheximide chase		12 µM		inhibition	80%
CC(Nc1nc(N2CCCC2)nc2ccccc12)c1ccccc1 (stereo not drawn)	HeLa Kyoto	RelA nuclear import, high content imaging		50 µM, 3 h, together with: 1 µM PMA, 60 min		cells with nuclear RelA	31.3% and 35.4%
COc1c(Cl)cc2c([nH]c3cnccc32)c1NC(=O)c1cccnc1C	hiPSC cardiomyocytes	CellTiter-Glo		concentration not given, 24 h	baseline: vehicle	ATP level	106%
CCCC(=O)O	HBL-1			0.5 µM, 120 h		viability	111%
CCn1cc(-c2cc(Cn3ccoc3=N)cc3c2CCN([C@@H](C)c2cc(OC)ccn2)C3=O)c(C(F)(F)F)n1	Huh-7	cell growth, inhibitor		120 h		EC50	6680 nM
O=C(NC(NC(=S)Nc1ccc(F)c([N+](=O)[O-])c1)C(Cl)(Cl)Cl)C(c1ccccc1)c1ccccc1 (stereo not drawn)	HeLa expressing Ub(G76V)-GFP	Ub(G76V)-GFP degradation, cycloheximide chase		12 µM		inhibition	32%
Nc1n[nH]c2nc(-c3cccc(O)c3)cc(-c3cc4ccccc4nc3N3CCOCC3)c12	NFS-60	MTT			baseline: WI-38 EC50 over NFS-60 IC50	selectivity ratio	4.59
O=C(/C=C/C=C/C=C/C1CCCCC1)NC1=C[C@@](O)(/C=C/C=C/C=C/C(=O)NC2=C(O)CCC2=O)[C@@H]2O[C@@H]2C1=O	SNU-886	cell growth, CellTiter-Glo		78 h		GI50	16500 nM
CCS(=O)(=O)c1nc(C2CC2)cc(C(F)(F)F)n1	HeLa Kyoto	RelA nuclear import, high content imaging		0.16 µM, 3 h, together with: 1 µM PMA, 60 min		cells with nuclear RelA	76.2% and 78.6%
COc1cc2ncnc(Nc3ccc(Oc4ccccc4)cc3)c2cc1OC	HeLa expressing Ub(G76V)-GFP	Ub(G76V)-GFP degradation, cycloheximide chase		12 µM		inhibition	18%
NC(=O)NOCCCCCCCCCCCCCCCC[P+](c1ccccc1)(c1ccccc1)c1ccccc1.O=C([O-])C(F)(F)F	mouse CD4 T cells, reporter	IFNγ-YFP expression, flow cytometry		144 h		concentration at maximal effect	0.4 µM

SMILES	tested on	test	test system	conditions	scale	endpoint	value
Nc1ncnc2c1cnn2-c1ccccc1	HeLa expressing Ub(G76V)-GFP	Ub(G76V)-GFP degradation, cycloheximide chase		12 µM		inhibition	5%
CC(C)NCC(O)c1ccc(O)c(O)c1 (stereo not drawn)	mouse ventricular cardiomyocytes			dose not given, 0.259 s		sarcomere length	1.8 µm
CCN(CC)C(=S)SSC(=S)N(CC)CC	BT-12	cell viability, MTT		10 µM, 72 h		inhibition	84.7%
COc1ccc(-c2cnc3c(-c4ccsc4)cnn3c2)cc1	HeLa expressing Ub(G76V)-GFP	Ub(G76V)-GFP degradation, cycloheximide chase		12 µM		inhibition	-3%
CC(C)N(C[C@H]1O[C@@H](n2cnc3c(N)ncnc32)[C@H](O)[C@@H]1O)[C@H]1C[C@@H](CCc2nc3cc(C(C)(C)C)ccc3[nH]2)C1	HBL-1			0.5 µM, 120 h		viability	148%
O=P(O)(O)C(O)(Cn1ccnc1)P(=O)(O)O	MDA-MB-231	AlamarBlue		1.9 µM, 48 h	baseline: control	viability	101 ± 2%
CC/C(=N\NC(=O)NCc1cccc(O)c1)c1ccc(O)c(C)c1O	SK-OV-3	gene expression, microarray, refers to: THBD		10 µM, 24 h	baseline: DMSO	log ratio	-3.02
O=C([O-])CN(CCN(CC(=O)[O-])Cc1cc(CCC(=O)NCCCCCC(=O)NCCCC[C@H](NC(=O)N[C@@H](CCC(=O)O)C(=O)O)C(=O)O)ccc1[O-])Cc1cc(CCC(=O)O)ccc1[O-].[68Ga+3].[OH3+]	LNCaP			25 nM, 1 h, 4 °C		surface-bound activity	0.34 ± 0.21 %AD/mg protein
Nc1nc(OCc2cc(Br)cs2)c2[nH]cnc2n1	HBL-1			0.1 µM, 120 h		viability	107%
CC(C)C[C@@H](C=O)NC(=O)[C@H](CC(C)C)NC(=O)[C@H](CC(C)C)NC(=O)OCc1ccccc1	BT-12	cell viability, MTT		10 µM, 72 h		inhibition	81.5%
CCc1ccc(NC(=O)Nc2c[nH]c3ccccc23)cc1	THP1-Dual KI-hSTING-R232	inhibitor			baseline: R232 over HAQ STING variant	potency ratio	8.2 fold
C[C@H](Nc1ccc2c(c1)OCCn1cc(N3C(=O)OC[C@H]3C(F)F)nc1-2)C(N)=O	A2058	FOXO1 translocation, kinase translocation reporter		2 h		IC50	> 3000 nM
CC/C(=N\NC(=O)C(C)Nc1ccccc1)c1ccc(O)c(C)c1O (stereo not drawn)	SK-OV-3	Western blot		10 µM, 3 h, 3D gellan gum culture, unit not given	baseline: DMSO	LATS band intensity	0.71 ± 0.7
CCCCN1CCN(c2ccc3[nH]c(-c4ccc5[nH]c(-c6cc(OC)c(OC)c(OC)c6)nc5c4)nc3c2)CC1	Hs-578T	SRB		10 µM, 48 h		growth percent	45%
Cc1ccc(C(=O)Nc2ccc(S(=O)(=O)O)c3cc(S(=O)(=O)O)cc(S(=O)(=O)O)c23)cc1NC(=O)c1cccc(NC(=O)Nc2cccc(C(=O)Nc3cc(C(=O)Nc4ccc(S(=O)(=O)O)c5cc(S(=O)(=O)O)cc(S(=O)(=O)O)c45)ccc3C)c2)c1	HBL-1			1 µM, 120 h		viability	104%
c1cc(-c2cnn3cc(-c4ccc(OCCN5CCCCC5)cc4)cnc23)ccn1	HeLa expressing Ub(G76V)-GFP	Ub(G76V)-GFP degradation, cycloheximide chase		12 µM		inhibition	3%
CCN(CC)Cc1ccc2cc(COC(=O)Nc3ccc(C(=O)NO)cc3)ccc2c1	HBL-1			0.5 µM, 120 h		viability	2.34%
COc1cccc2c(NN=Cc3cccc(F)c3)ccnc12	Plasmodium yoelii		17XL	384-well		IC50	> 20000 nM
CC1(C)CCC(CN2CCN(c3ccc(C(=O)NS(=O)(=O)c4ccc(NCC5CCOCC5)c([N+](=O)[O-])c4)c(Oc4cnc5[nH]ccc5c4)c3)CC2)=C(c2ccc(Cl)cc2)C1	THP-1	annexin V/PI flow cytometry, refers to: annexin V-/PI+		1.6 µM, 24 h		necrotic cells	0.1%
